Results pooled from the literature.
Every numbered part comes from another study and shows a few of its results, in no order. Positions count from the first letter of the parent shown.

Block 1
Target: RING finger protein unkempt homolog, zinc fingers 1-6, SBP tag (UNK, Homo sapiens, UniProt Q9C0B0, residues 30-357)
Chain of UniProt Q9C0B0 (30-357, looked up): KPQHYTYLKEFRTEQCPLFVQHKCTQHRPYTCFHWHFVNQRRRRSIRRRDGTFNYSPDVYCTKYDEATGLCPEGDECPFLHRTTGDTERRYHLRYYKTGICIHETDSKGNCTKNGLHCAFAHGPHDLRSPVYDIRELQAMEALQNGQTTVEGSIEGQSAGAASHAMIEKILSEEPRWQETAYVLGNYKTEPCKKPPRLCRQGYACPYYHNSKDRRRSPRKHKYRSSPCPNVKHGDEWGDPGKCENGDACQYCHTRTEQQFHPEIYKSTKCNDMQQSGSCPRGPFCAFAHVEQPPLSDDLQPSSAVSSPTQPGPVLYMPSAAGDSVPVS
Method: RNA Bind-n-Seq
Form: RNA
Sample: in vitro
Tested at: 100 nM
Setting: RNA with constant flanks, vertebrate orthologous sites, ends assumed
Reference: input RNA pool
Reading: higher = stronger binding
Quantity: bound/input enrichment
All sequences stand within: GGGAGUUCUACAGUCCGACGAUC … CAACAGAGGAUUGAGCAUCA
CUCCCUGUCACUGUGAUAUUUAAAAUAUGCACAGUCUUAAUUUUGUUUCCCAAACGAUUCUAGUAAUUUCCCAGCAAUAGCUCUCUCUUACCUGUUAUUUAUCAAUUCCCCCACUUCCCC: 3.52 ratio
CAGUGCCCUGGGCCGGGACAGAUUUUUUUUUAACUUCUUGAAACUUAAACUCUGUGCUUGUAGGAUACUGUAACCUUUUUGUCUUUUUUUUUUUUUUUUUUUUUUUUAUAAAAAAAAAAC: 1.01 ratio
GUCUGGGUGGGGGGGCAGUGAGCAUUAACUUAUAAAGAAAUGAAAUGCUGAAAGUCCUAUUAGUACUAAGUUUAGUGGGAGAAUUUAAACUCUUUUUACAUAAUUCUAAAACGAAAACCU: 0.88 ratio
GAUUUGGACCUUGGAGCCGAACCAGGGAACUAGCAAAAGUAAAGCAGACUUGUAAAAGUAUAGCCAAAUGCAGCUGCACCACAACAGUCCCACCACAUUAGCAGCUGUGUUAAAGUAUUU: 0.459 ratio
UCUAUACAAUUUAAAAAAUAUUUCCUCAUAGGAUGCUUUGGCCUUUCAUCUAUUUAAUCAUAGCUACAUAUCUAUUUUUUAUAAGUAGCAGUACACAUUCAAAGGGGUAUUCCUAGCUCA: 0.435 ratio
AUUUUCAGUCUCUUCUCCCUUUUCCUGAUUUUAAAAGUCCUUCCCCCCCGCCCUUUUUAGGCAUUUGUAGUAACAUUAGCAGAAAGAUUUAAUUUGAGCAACUUUGAUUCUUAAAACAAA: 0.885 ratio
UUUUAUUGAUCAGGUCUGUAAAUGUGUACUAAAAAAAUCAGAGUUUAUUUAUAAACAGAAUAGUUUAUUUAAAGAAAAACUCUUUCCUCACUGACCUUGUGGUAUGCAUUAAUUCCAUUU: 0.0567 ratio
GCACAUGCCGCUGUCACCAAAAGCAGACUACCAUAUUUCAGAUUUCAUCCAGAGUCGUUCUGGUGUUUCCUAUUCCCUACCCUUCCCACUACUUUCAAUGAUGAAGUAUCCUAAGUUCUC: 0.966 ratio
CAUGUCCUUGUAACUGUGAUAUUUAAAAUAUCCACAGUAUUCACCUUUUCCAAAUGAUUCUAGUAAUGGUCUAGAAAUAUCUUUCUCUUACCUGUUAUUUAUCAAUUUUUCCCAGUAUUU: 0.526 ratio
UGGGUUACUCCUAUUAUCAUCAAGUAGCUGGAAUUGUGAAGGUCGGAGUAGUUAGAUCUUUAGCUUUUAUUCCUUCCUUUUUUUGUAUUCCUAUCCAUGUGUAUAAAUUAUUGAUCAUGU: 1.14 ratio
UUGUCUCGGGAGAGCCGGCCGGGGUUGGCACUCAUCCCACUUGCCCUUUGCUUUAUUUUCCUCGGGGCUGGGGUGAGGGUCGCGGCGCCCACUGAGCCUGAGGCGCGAGCUUGUGUGAUU: 0.359 ratio

Block 2
Target: RNA binding protein fox-1 homolog 2, RRM domain, GST-SBP tag (RBFOX2, Homo sapiens, UniProt O43251-10, residues 100-194)
Method: RNA Bind-n-Seq
Form: RNA
Sample: in vitro
Tested at: 365 nM
Setting: natural RNA segment, single round, ends assumed
Reference: no-protein control
Reading: higher = stronger binding
Quantity: RBNS enrichment (R)
All sequences stand within: GGGAGUUCUACAGUCCGACGAUC … UGGAAUUCUCGGGUGCCAA
Target sequence (chain): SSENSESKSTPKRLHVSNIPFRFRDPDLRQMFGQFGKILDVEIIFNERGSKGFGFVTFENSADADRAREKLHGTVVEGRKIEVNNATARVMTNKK
CACAUUUGAACUCUUGACACUUCCAGCUCCCUCAGCUCCUGGCUAGAAGGCUGGAGAUCAGUUGGAUAUCCUCUCUCCUUUUUGAAAACGCCCCUAAGUAGUUUAUCCAA: 0.727
CCAGUGGAAGAAACACCCUUUCAUCUCAGAGUCCACUGUGGCACUGGCCACCCCUCCCCAGUACAGGGGUGCUGCAGGUGGCAGAGUGAAUGUCCCCCAUCAUGUGGCCC: 0.286
CCCCAGAGGCCGAGCAGGGAGGGAGUGGAGCUGAGCCCCUGAAAUCCUGCACGUAGCUGAGUGAGCUUAAGCCUUUAGUUUGGGGUGUGAAUAGGGAUCUGUGGUAGCCA: 6.36
AGUAACAAAAUUAUUUUUCAUUGGCCUAUUCUGUUCUUGUGUCUAAACUAACAUUACAUUAAUUUUUAAUCUUAGUUUCUGAUAAACACAAGCCAUUCCUAUCAAAAUAU: 0.224
AAAGGAUGGAAUUCUUUAUGAAGUGGGUUACAGAUCUUUGAAUAUGUUAUUUAUAAAAAAAUCAUUUAAAAAUUCUAGGUCAUUUUUCUCAGAACUAAAUUCAAAACAGG: 0.914
GCUACAUUUCCAUGCAGGCAUUUGCACUUUGAAGUUAGGGCUGCCCAGUGCCACAUGCAAAGAGUGUAUUUGGUCUAAACAGUUCUUUCCAAACAACCAAAUGGCUGGGC: 0.611
UACCUGGACUCAAUGACAAAGACCGAGUCUUCUUUUUUUUUAAACAAAAACAAAAAAAGCAACCAGGGCUAUUUGUACAGUUGAAGGGGUGAACAGAAUGGGCGGCUGUG: 0.819
ACCCUCUUGCCCAGCCGGCUGCAAGUUUUGUAAGCGCGGACAGACACUGCUGAACCUUUCCUCUGGGACCCCCUGUGGCCCUCGCUCUGCCUCCUGUCCUUGUCGCUGUG: 0.347
GGUGAGUGGCUGGUUCCAGGGUGGGCCGGUGCCAGCUCCGGGGUGGACUGAACAGCGGCGGCUGUCCCUGUGCAUCCUUUGAUUACUCUCAUGCUGCAUUUACUGUUUAC: 0.585
AUUUUUUUGUAGUUUAAAGAGCUUUAUUAAUGCAAUAAAUUAACUUUGUACAUUUUUAUAUUAAAAAAAAAAAAAGACUAUUAAGGGACUUCAGAAUGUUGUAGGCCUCA: 3.85
CGCAGGCGGGGCAGUAUGUGAUGGACUGGGGAGCACAGGUGUCUGCCUAGAUCCACGUGUGGCCUCCGUCCUGUCACUGAUGGAAGGUUUGCGGAUGAGGGCAUGUGCGG: 4.54
UUCUAGAAACAGUUUGGUAAACAUAAAAGAGAGCAAGAUCAUUCUCGAUCUUCAUCCUCUUCAGCAUCACCUUCUUCUCCCAGUUCUCGAGAAGAAAAGGAGAGUAAGAA: 0.526

Block 3
Target: CCND1, cyclin fold, Cln2 fusion (human)
Method: yeast growth competition, sequencing
Sample: yeast
Setting: weak parent motif
Reference: not given
Reading: higher = stronger binding
Quantity: normalised enrichment score
Starting sequence: CDKN1B docking peptide (human); PSACRNLFGPVDH
PSGCRNLFGPVDH [A3G]: 0.117
PSACRNLFGPVDI [H13I]: 0.776
PSACRNEFGPVDH [L7E]: -0.0641
GSACRNLFGPVDH [P1G]: 0.838
PSACRNLFYPVDH [G9Y]: 0.687
PSAYRNLFGPVDH [C4Y]: 0.168
PSAVRNLFGPVDH [C4V]: 0.291
PSACRNLFGPVWH [D12W]: 0.604
PSACRNCFGPVDH [L7C]: -0.337
PSACRNLFGPKDH [V11K]: 0.447
PSACRNLFGLVDH [P10L]: 0.614
PSACRDLFGPVDH [N6D]: 0.294
PSACRELFGPVDH [N6E]: 1.28
PSACQNLFGPVDH [R5Q]: 0.414
PSACRNLFGPVDQ [H13Q]: 1.05
PSACRNLFGPGDH [V11G]: 0.931
PSACRNLFGNVDH [P10N]: 0.919
TSACRNLFGPVDH [P1T]: 1.49
PSACRNWFGPVDH [L7W]: -0.205
PSACRNLFGPTDH [V11T]: 0.867
PSACRNLFAPVDH [G9A]: 0.766
FSACRNLFGPVDH [P1F]: 0.896
PSADRNLFGPVDH [C4D]: 0.197
PSAFRNLFGPVDH [C4F]: 0.0149
PSACRNLFGPVPH [D12P]: 0.271

Block 4
Target: Interferon regulatory factor 3, full length, phosphomimetic (IRF3, Homo sapiens, UniProt Q14653, residues 1-427, S386D/S396D/S398D/S402D/T404D/S405D)
Chain of UniProt Q14653 (whole entry, unmodified, looked up): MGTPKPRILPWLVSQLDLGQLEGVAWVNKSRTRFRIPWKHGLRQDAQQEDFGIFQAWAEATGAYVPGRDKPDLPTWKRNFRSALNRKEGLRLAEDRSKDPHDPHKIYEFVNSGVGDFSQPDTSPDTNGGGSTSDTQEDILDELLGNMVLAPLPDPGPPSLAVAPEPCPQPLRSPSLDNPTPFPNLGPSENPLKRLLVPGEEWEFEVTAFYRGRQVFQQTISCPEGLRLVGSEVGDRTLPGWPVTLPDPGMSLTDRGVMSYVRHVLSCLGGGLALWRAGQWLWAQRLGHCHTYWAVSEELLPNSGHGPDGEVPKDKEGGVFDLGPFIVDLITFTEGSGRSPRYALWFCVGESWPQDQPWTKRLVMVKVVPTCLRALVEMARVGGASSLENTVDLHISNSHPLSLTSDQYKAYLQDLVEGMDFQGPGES
Method: protein-binding microarray
Form: double-stranded DNA, one strand shown
Sample: in vitro
Tested at: 2540 nM top
Setting: 60-bp whole probe
Together with: salmon DNA 0.4 mg/ml
Reference: random background probes
Reading: higher = stronger binding
Quantity: fitted relative affinity
All sequences stand within: GCCTAGCAC … GTCTTGATTCGCTTGACGCTGCTG
GACGGTATCGGTATCGGGCCGTGCTAG: 4.14 z-score
TCATGGTTCTGCTTCTTACTGTGCTAG: 0.0566 z-score
TCATCTCTCATGTTACAACTGTGCTAG: 1.38 z-score
TTAGGTTTCGGACTGGGTTCGTGCTAG: 3.88 z-score
TTAGGTCGCGGACTGGGTTAGTGCTAG: -0.619 z-score
CTTGCTTTCCAATTCTCTTTGTGCTAG: 4.45 z-score
GACGATTTCAGCTCCGAGACGTGCTAG: 0.625 z-score
TTAGAACTGGTGTATCGATTAGTGCTA: -0.212 z-score
GTAGATATCGGGACTGGATTAGTGCTA: 0.0458 z-score
TTATGTTTCCTTTTCCTTTAGTGCTAG: 10.8 z-score
GACGATATCGGTATCGGGACGTGCTAG: 2.11 z-score
TTAGATATTGGGTATCGATTAGTGCTA: -0.102 z-score
GACGGTCTAGGTATCGGGACGTGCTAG: 0.422 z-score
TTAGGCCTGCTTCTCCTTTAGTGCTAG: -0.427 z-score
TTAGGACTGGACTTTCGGCTAGTGCTA: -0.483 z-score
GATGATATCAGTTTCGAGACGTGCTAG: 3.67 z-score

Block 5
Target: HLF, bZIP domain (human)
Method: DHFR protein complementation
Sample: yeast
Setting: single substitutions, most at no-binding floor
Reference: wild-type JUN-FOS pair
Reading: higher = stronger binding
Quantity: binding fitness
Starting sequence: JUN, bZIP domain (human); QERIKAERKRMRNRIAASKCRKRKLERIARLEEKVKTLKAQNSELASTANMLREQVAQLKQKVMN; partner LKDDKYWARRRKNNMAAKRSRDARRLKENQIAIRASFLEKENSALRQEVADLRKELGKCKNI
E33W: -1.5 natural log
A49M: -1.48 natural log
A49C: -1.35 natural log
T37F: -1.39 natural log
L31A: -1.49 natural log
R53T: -1.54 natural log
V35C: -1.33 natural log
K39T: -1.25 natural log
M51F: -1.37 natural log
T37C: -1.38 natural log
T48M: -1.46 natural log
E33P: -1.45 natural log
A57H: -1.19 natural log
N42L: -1.53 natural log
A49P: -1.51 natural log
K36Q: -1.52 natural log
A46H: -1.44 natural log
K39Q: -1.32 natural log
A49R: -1.32 natural log
A29R: -1.36 natural log
L38N: -1.46 natural log
E54C: -1.52 natural log
